Measured values from different studies.
Lines come from different studies, so protocols differ. ± gives the spread as reported.
HCRTR1: Orexin/Hypocretin receptor type 1 (HCRTR1, Homo sapiens, UniProt O43613)
GRB2: Growth factor receptor-bound protein 2 (GRB2, Homo sapiens, UniProt P62993)
LRP1 CR5 domain: LRP1, CR5 domain (Homo sapiens, UniProt Q07954)
dnaK: dnaK (Escherichia coli, UniProt P0A6Y8)
Protein S100-B: Protein S100-B (Homo sapiens, UniProt P04271)
B1: Rad9 754–931 (S. cerevisiae); sequence looked up; chain GKDSKEQSYVFPEGIRTADNSFLSKDDIIFGNAVWCQYTWNYKFYPGILLEVDTNQDGCWIYFETGRSLTKDEDIYYLDIRIGDAVTFDGNEYVVVGLECRSHDLNIIRCIRGYDTVHLKKKNASGLLGKRTLIKALSSISLDLSEWAKRAKIILEDNEKNKGDAYRYLRHPIRGRKS

c1ccc2nc3ccccc3cc2c1
Kd (HIV-1 SL4 RNA stem-loop; binding, ESI-FTMS titration; pH 7.5): 12.7 ± 1.4 µM

COc1cc2c(cc1O)C(Cc1ccc(OC)c(OC)c1)N(CC(=O)NCc1ccccc1)CC2 (stereo not shown)
Kd (HCRTR1): 1.53 ± 0.53 µM

CC[C@H](C)[C@H](NC(=O)[C@@H](N)CC(=O)O)C(=O)N1CCC[C@H]1C(=O)N1CCC[C@H]1C(=O)N1CCC[C@H]1C(=O)N[C@@H](CCCNC(=N)N)C(=O)N1CCC[C@H]1C(=O)N1CCC[C@H]1C(=O)N[C@@H](CCCCN)C(=O)N[C@@H](C)C(=O)N[C@@H](Cc1c[nH]cn1)C(=O)N1CCC[C@H]1C(=O)O
Kd (GRB2; binding, ITC; pH 8): 486 µM

CC[n+]1c(-c2ccccc2)c2cc(N)ccc2c2ccc(N)cc21
Kd (HIV-1 nucleocapsid-SL2 RNA complex; binding, ESI-FTMS; pH 7.5): 13.5 ± 0.6 µM

COC(=O)[C@@H](N)CCCN=C(N)N
Kd (LRP1 CR5 domain; tryptophan fluorescence titration; pH 7.4, 298 K, CR5 domain, ionic strength 0.17): 760 ± 80 µM

CC1N=C(N)N(CCCC(N)C(=O)O)C1=O (stereo not shown)
Kd (AGER (Homo sapiens, UniProt Q15109); binding, fluorescence; pH 6.5): 0.031 µM

CSCC[C@H](NC(=O)[C@H](CC(N)=O)NC(=O)[C@H](CC(N)=O)NC(=O)[C@H](CC(N)=O)NC(=O)[C@H](C)N)C(=O)N[C@@H](Cc1ccc(O)cc1)C(=O)N[C@@H](CCCNC(=N)N)C(=O)N[C@@H](CCCNC(=N)N)C(=O)O
Kd (dnaK; peptide binding, surface plasmon resonance; with: ATP): 1.77 µM

COCc1c(C(C)C)nc(C(C)C)c(/C=C/[C@@H](O)C[C@@H](O)CC(=O)O)c1-c1ccc(F)cc1
Kd (Cytochrome P450 2C8 (CYP2C8, Homo sapiens, UniProt P10632); ligand binding, equilibrium spectral binding; purified protein; pH 7.4, 25 °C, high-affinity site, 1% CHAPS): 0.4 ± 0.2 µM

CC1=C(/C=C/C(C)=C/C=C/C(C)=C/C=C/C=C(C)/C=C/C=C(C)/C=C/C2=C(C)C[C@H](O)CC2(C)C)C(C)(C)C[C@H](O)C1
Kd (Steroidogenic acute regulatory protein, mitochondrial, START domain (STAR, Homo sapiens, UniProt P49675); binding, SPR, FastStep injection; 25 °C, immobilized protein): 1.36 ± 0.06 µM

CCCCOc1cc2c(cc1OC)CCN(CC(=O)NCc1ccccc1)C2Cc1ccc(OC)c(OC)c1 (stereo not shown)
Kd (HCRTR1): 0.0547 ± 0.023 µM

COC(=O)[C@@H](N)Cc1c[nH]cn1
Kd (LRP1, CR8 domain D1085A (Homo sapiens, UniProt Q07954, D1085A); binding, tryptophan fluorescence titration; pH 5.5, low ionic strength): 4600 ± 50 µM

CSCC[C@H](NC(=O)[C@H](CC(C)C)NC(=O)[C@H](CCCCN)NC(=O)[C@H](CCCCN)NC(=O)[C@H](Cc1c[nH]cn1)NC(=O)[C@H](CCCNC(=N)N)NC(=O)[C@H](CO)NC(=O)[C@@H](NC(=O)[C@H](CO)NC(=O)[C@H](CCC(N)=O)NC(=O)CNC(=O)[C@H](CCCCN)NC(=O)[C@H](CCCCN)NC(=O)[C@H](CO)NC(=O)[C@H](CCCCN)NC(=O)[C@H](CC(C)C)NC(=O)[C@H](Cc1c[nH]cn1)NC(=O)[C@H](CO)NC(=O)[C@H](Cc1ccc(O)cc1)NC(C)=O)[C@@H](C)O)C(=O)N[C@@H](Cc1ccccc1)C(=O)N[C@@H](CCCCN)C(=O)N[C@H](C(=O)N[C@@H](CCC(=O)O)C(N)=O)[C@@H](C)O
Kd (Protein S100-B; binding, NMR line shape analysis; 35 °C, high salt): 30 ± 6 µM

phosphatidylinositol 3,4-bisphosphate
Kd (Src kinase-associated phosphoprotein 2, PH domain (Skap2, Mus musculus, UniProt Q3UND0); fluorescence polarization direct titration; pH 6.5, 21 °C, compound labelled with BODIPY TMR-X): 40 µM

CCCCCCOc1cc2c(cc1OC)CCN(CC(=O)NCc1ccccc1)C2Cc1ccc(OC)c(OC)c1 (stereo not shown)
Kd (HCRTR1): 0.315 ± 0.081 µM

CC(=O)N[C@H]1C(O)O[C@H](CO)[C@H](O)[C@@H]1O (mixture of isomers)
Kd (CLEC10A (Homo sapiens, UniProt Q8IUN9); ITC; pH 7.4, 298 K): 14.7 µM

O=C(O)CNC(=O)c1cc(CNC(=O)c2ccc(CNC(=O)[C@H]3C[C@H](NC(=O)CCNS(=O)(=O)c4ccc5ccccc5c4)CN3C(=O)c3nn(-c4ccccc4)c(=O)[nH]c3=O)cc2)cc(OCC(=O)N[C@@H](CCCCNC(=S)Nc2ccc3c(c2)C(=O)OC32c3ccc(O)cc3Oc3cc(O)ccc32)C(=O)O)c1
Kd (FOLH1 (Homo sapiens, UniProt Q04609); cell-free assay, FP): 0.019 µM

B1 (Rad9 754–931)
Kd (double-stranded DNA, 35 bp; DNA binding, EMSA; 2 h, pH 8.0, 22 °C): 2.07 ± 0.27 µM

C[C@@H](O)[C@H](NC(=O)[C@H](CC(N)=O)NC(=O)[C@H](CC(N)=O)NC(=O)[C@H](CCCNC(=N)N)NC(=O)[C@@H](N)CC(N)=O)C(=O)NCC(=O)O
Kd (dnaK; peptide binding, surface plasmon resonance; with: ADP): 0.855 µM

Nc1ncnc2c1ncn2[C@@H]1O[C@H](COP(=O)(O)OP(=O)(O)OP(=O)(O)O)[C@@H](O)[C@H]1O
Kd (MAP2K1 (Homo sapiens, UniProt Q02750)): 8.1 µM

CN(CCOc1ccc(CC2SC(=O)NC2=O)cc1)c1ccccn1 (stereo not shown)
Kd (Cytochrome P450 2C8 (CYP2C8, Homo sapiens, UniProt P10632, K399R/R139K); ligand binding, equilibrium spectral binding; purified protein; pH 7.4, 25 °C, high-affinity site, 1% CHAPS): < 0.001 µM

NC[C@@H]1O[C@H](O[C@H]2[C@@H](O)[C@H](O[C@@H]3[C@@H](O)[C@H](N)C[C@H](N)[C@H]3O[C@H]3O[C@H](CN)[C@@H](O)[C@H](O)[C@H]3N)O[C@@H]2CO)[C@H](N)[C@@H](O)[C@@H]1O
Kd (HIV-1 SL3 RNA stem-loop; binding, ESI-FTMS titration; pH 7.5): 4.2 ± 0.3 µM

COC(=O)[C@H](CCCCN)NC(C)=O
Kd (LRP1 CR5 domain; binding, tryptophan fluorescence titration; isolated CR5 domain; pH 7.4, 298 K, ionic strength 0.17): 2500 ± 320 µM

O=P(O)(O)O[C@@H]1[C@H](O)[C@H](O)[C@@H](OP(=O)(O)O)[C@H](OP(=O)(O)O)[C@H]1O
Kd (Arf-GAP with SH3 domain, ANK repeat and PH domain-containing protein 1, PH domain (Asap1, Mus musculus, UniProt Q9QWY8); isothermal titration calorimetry; 25 °C): ≥ 100 µM

NC[C@@H]1O[C@H](O[C@H]2[C@@H](O)[C@H](O[C@@H]3[C@@H](O)[C@H](N)C[C@H](N)[C@H]3O[C@H]3O[C@H](CO)[C@@H](O)[C@H](O)[C@H]3N)O[C@@H]2CO)[C@H](N)[C@@H](O)[C@@H]1O
Kd (HIV-1 nucleocapsid-SL2 RNA complex; binding, ESI-FTMS; pH 7.5): 9.3 ± 1.9 µM

COc1ccc(CC2c3cc(OC)c(OC)cc3CCN2CC(=O)NCc2ccccc2)cc1OC (stereo not shown)
Kd (HCRTR1): 0.199 ± 0.047 µM

N=C(N)c1ccc(NCCCCCCCNc2ccc(C(=N)N)cc2)cc1
Kd (CTG·CAG repeat hairpin DNA; fluorescence titration; 11 CTG·CAG repeats): 3.9 ± 0.3 µM

CC(=O)N[C@H]1C(O)O[C@H](CO)[C@@H](O[C@@H]2O[C@H](CO)[C@H](O)[C@H](O)[C@H]2O)[C@@H]1O (stereo partly shown)
Kd (Galectin-1 (LGALS1, Homo sapiens, UniProt P09382); binding, ITC; pH 7.2): 89.6 µM

CC(C)[C@H](NC(=O)[C@@H]1CCCN1C(=O)[C@@H]1CCCN1C(=O)[C@@H]1CCCN1)C(=O)N[C@@H](CC(=O)O)C(=O)N[C@@H](CCCNC(=N)N)C(=O)N[C@@H](CC(N)=O)C(=O)N[C@@H](C)C(=O)N[C@@H](CCCCN)C(=O)N1CCC[C@H]1C(=O)N[C@@H](CC(=O)O)C(=O)N[C@@H](CCCNC(=N)N)C(=O)O
Kd (GRB2; binding, ITC; pH 8): 129 µM

CC(=O)N[C@@H](CCC(=O)O)C(=O)N[C@H](C(=O)N[C@@H](CC(C)C)C(=O)N[C@H](C(=O)N[C@@H](CCCNC(=N)N)C(=O)N1CCC[C@H]1C(=O)N[C@@H](CCCCN)C(=O)N1CCC[C@H]1C(=O)N[C@@H](CC(C)C)C(=O)N[C@@H](CC(C)C)C(=O)N[C@@H](CC(C)C)C(=O)N[C@@H](CCCCN)C(=O)N[C@@H](CC(C)C)C(=O)N[C@@H](CC(C)C)C(=O)N[C@@H](CCCCN)C(=O)N[C@@H](CO)C(=O)N[C@H](C(=O)NCC(=O)N[C@@H](C)C(=O)N[C@@H](Cc1ccc(O)cc1)C(N)=O)C(C)C)C(C)C)[C@@H](C)O
Kd (Protein S100-B; binding, NMR line shape analysis; 35 °C, low salt): 0.1 ± 0.02 µM

COc1ccccc1C(=O)Nc1ccc(C(=O)Nc2ccccc2C(=O)O)cc1
Kd (Paired box protein Pax-2, paired domain (Pax2, Mus musculus, UniProt P32114); binding, biolayer interferometry): 1.35 to 1.5 µM

NC(=O)C[C@H](NC(=O)C1(NC(=O)[C@H](Cc2ccc(C(C(=O)O)C(=O)O)cc2)NC(=O)C(=O)O)CCCCC1)C(=O)NCCCc1cccc2c(OC(=O)CCCCCNC(=O)CCCC[C@@H]3SC[C@@H]4NC(=O)N[C@@H]43)cccc12
Kd (Growth factor receptor-bound protein 2, SH2 (GRB2, Homo sapiens, UniProt P62993); binding, SPR): 0.405 µM

[I-].[K+]
Kd (SLC4A1 (Homo sapiens, UniProt P02730); chloride exchange flux, inhibitor, Dixon plot; human red blood cells; pH 7.2, 0 °C, intracellular Cl 133 mM, with: external Cl 5.5 or 0.6 mM): 890 µM

CC[C@H](C)[C@H](NC(=O)[C@@H](NC(=O)[C@@H](NC(=O)[C@H](CO)NC(=O)[C@H](CO)NC(=O)[C@@H](NC(=O)[C@H](CC(C)C)NC(=O)[C@H](CC(N)=O)NC(=O)[C@H](C)NC(=O)[C@H](CCC(=O)O)NC(=O)[C@H](CCCNC(=N)N)NC(=O)[C@H](CC(=O)O)NC(=O)[C@@H](N)CC(C)C)[C@@H](C)O)C(C)C)[C@@H](C)O)C(=O)N[C@@H](CC(C)C)C(=O)N1CCC[C@H]1C(=O)N[C@@H](CC(C)C)C(=O)N1CCC[C@H]1C(=O)N[C@@H](CC(C)C)C(=O)N[C@@H](CCC(N)=O)C(=O)N[C@@H](CC(N)=O)C(=O)N[C@@H](C)C(=O)N[C@H](C(=O)N[C@H](C(=O)N[C@@H](CCC(=O)O)C(=O)N[C@@H](C)C(=O)NCC(=O)N[C@H](C(=O)N[C@@H](CCCNC(=N)N)C(=O)O)[C@@H](C)O)C(C)C)[C@@H](C)O
Kd (Toll-like receptor 4/MD-2 (TLR4/LY96, Homo sapiens, UniProt O00206+Q9Y6Y9); binding, ELISA; with: His-tagged TLR4/LY96): > 0.1 µM

COc1ccc(CC2c3cc(OCCN(C)C)c(OC)cc3CCN2CC(=O)NCc2ccccc2)cc1OC (stereo not shown)
Kd (HCRTR1): 4.74 ± 0.44 µM

Excerpt of the above:
COc1cc2c(cc1O)C(Cc1ccc(OC)c(OC)c1)N(CC(=O)NCc1ccccc1)CC2 (stereo not shown)
Kd (HCRTR1): 1.53 ± 0.53 µM

CC[C@H](C)[C@H](NC(=O)[C@@H](NC(=O)[C@@H](NC(=O)[C@H](CO)NC(=O)[C@H](CO)NC(=O)[C@@H](NC(=O)[C@H](CC(C)C)NC(=O)[C@H](CC(N)=O)NC(=O)[C@H](C)NC(=O)[C@H](CCC(=O)O)NC(=O)[C@H](CCCNC(=N)N)NC(=O)[C@H](CC(=O)O)NC(=O)[C@@H](N)CC(C)C)[C@@H](C)O)C(C)C)[C@@H](C)O)C(=O)N[C@@H](CC(C)C)C(=O)N1CCC[C@H]1C(=O)N[C@@H](CC(C)C)C(=O)N1CCC[C@H]1C(=O)N[C@@H](CC(C)C)C(=O)N[C@@H](CCC(N)=O)C(=O)N[C@@H](CC(N)=O)C(=O)N[C@@H](C)C(=O)N[C@H](C(=O)N[C@H](C(=O)N[C@@H](CCC(=O)O)C(=O)N[C@@H](C)C(=O)NCC(=O)N[C@H](C(=O)N[C@@H](CCCNC(=N)N)C(=O)O)[C@@H](C)O)C(C)C)[C@@H](C)O
Kd (Toll-like receptor 4/MD-2 (TLR4/LY96, Homo sapiens, UniProt O00206+Q9Y6Y9); binding, ELISA; with: His-tagged TLR4/LY96): > 0.1 µM

NC(=O)C[C@H](NC(=O)C1(NC(=O)[C@H](Cc2ccc(C(C(=O)O)C(=O)O)cc2)NC(=O)C(=O)O)CCCCC1)C(=O)NCCCc1cccc2c(OC(=O)CCCCCNC(=O)CCCC[C@@H]3SC[C@@H]4NC(=O)N[C@@H]43)cccc12
Kd (Growth factor receptor-bound protein 2, SH2 (GRB2, Homo sapiens, UniProt P62993); binding, SPR): 0.405 µM
